Measurements from different studies.
Each numbered part is a random draw from the data of one study; scales do not carry over between parts.

Sample 1
Target: RNA binding protein fox-1 homolog 2, RRM domain, GST-SBP tag (RBFOX2, Homo sapiens, UniProt O43251-10, residues 100-194)
Method: RNA Bind-n-Seq
Molecule type: RNA
Medium: in vitro
Tested at: 365 nM
Setting: natural RNA segment, single round, ends assumed
Baseline: no-protein control
Direction: higher = stronger binding
Constant ends, left off below: GGGAGUUCUACAGUCCGACGAUC … UGGAAUUCUCGGGUGCCAA
| Oligonucleotide | RBNS enrichment (R) |
| --- | --- |
| GGCCCCCUUUGCCACGUCCCCUUAGCUUAGUGAUCAGGUGUGAGAGUGGCCAUUUCCUUACCUUUGAUCCCUGUAAAGCAGAAAGGACUCCUUUGACAGGCGACAAACUA | 0.438 |
| UCUGGAGAGGGACCAAGUCUUUUCUGCCCACAUCUCACACAAUUGAGGUGUCUGAACAAGCUUGGGGAGGGUCUAUAAGGGGUAGGCUCAAAAAAAAAAAAACCCAUUUG | 0.791 |
| UGACUGCGUUCAUCAGUUUUACACUGGGGCUGCUACAUAAUAUUUUCAUUUGAACGAAGAACUUCAAAAAGCACAGGACUAGAUGAUCUCUGUUCCUUUUGGCUCUAAUA | 0.5 |
| GUCUCCAGAUCUGAUGACCUCUCACAGUGCUCAUGAGCCUUUUGCCCACCACGGACUGCUCAGCCUGCUUCUCUCCCGGAACUUAAGGUCCAGCCAGACUUCAGGAUCUG | 0.427 |
| CCAUUCUCACCUAUCCACACAACAUAUCCGUAUAUAUCCCCUCUACUCUUACUUCCCCCAAAUUUAAAGAAGUAUGGGAAAUGAGAGGCAUUUCCCCCACCCCAUUUCUC | 1.27 |
| AUGAUUUUGCUCCUAGUUUUGAUUUCUGCCAGGAUUGAAUUAUUUCAAAAUCUCCUGUGUUUUUUAAGCUUUUUCAAAAUAGAUGUCUGAGGAAAACCAGCAGAAUAUUA | 0.633 |
| CAAUCAUGGAAAGCAUGUUGUGUGGCUCUGAUCCUAGUAUUUGGGAAACAGAGACAGAAAGGUUAGAUCUUAAAAGUCAAUCUCGGCUACAUAGUGUGAGUCAAGGCCAG | 1.12 |

Sample 2
Target: Interferon regulatory factor 5, full length, phosphomimetic (IRF5, Homo sapiens, UniProt Q13568-2, residues 1-514, S451D/S453D/S456D/S462D)
Method: protein-binding microarray
Molecule type: double-stranded DNA, one strand shown
Medium: in vitro
Tested at: 940 nM top
Setting: 60-bp whole probe
Together with: salmon DNA 0.4 mg/ml
Baseline: random background probes
Direction: higher = stronger binding
Constant ends, left off below: GCCTAGCAC … GTCTTGATTCGCTTGACGCTGCTG
| Oligonucleotide | fitted relative affinity [z-score] |
| --- | --- |
| TCATGTACGTCGTTTCCCACTGTGCTA | 0.405 |
| TTAGGACTGGACTATCGGTTGGTGCTA | -0.297 |
| TCAAATTCTCATTTCCAACTGTGCTAG | 1.27 |
| TCAATTTCCATTATTGCACTGTGCTAG | 0.703 |
| CTCTACCTCGTCATAGTAACGTGCTAG | 0.211 |
| TTAGATTCCGGGACTGGATTAGTGCTA | -0.312 |
| TGGTGTCTCTGGCCTGGGTCGGTGCTA | 0.254 |
| TTAGATACCAGTCTCGATTAGTGCTAG | 2.81 |
| CCAGCTCTGATGTTGGGAAAGTGCTAG | -0.256 |
| GACGGCTTCCTTTCCCTGACGTGCTAG | 0.617 |
| GACGGACTCGGGTTTCGGGACGTGCTA | 2.04 |

Sample 3
Target: Max-binding protein MNT, bHLH-zipper, MAX partner unstated (MNT, Homo sapiens, UniProt Q99583, residues 220-300)
Method: protein-binding microarray
Molecule type: double-stranded DNA, one strand shown
Medium: in vitro
Tested at: not given
Setting: k-mer, scored over probes, only values ≥0.25
Direction: higher = stronger binding
Construct (chain): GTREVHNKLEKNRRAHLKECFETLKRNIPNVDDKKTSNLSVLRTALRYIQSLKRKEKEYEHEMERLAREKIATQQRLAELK
| Oligonucleotide | E-score |
| --- | --- |
| TCGTGCAA | 0.252 |
| GGGCATGA | 0.263 |
| CTCGTGTA | 0.448 |
| GTGCCCCA | 0.286 |
| CCACGCCG | 0.37 |
| CATGACGC | 0.256 |
| AGCGTGCC | 0.374 |
| CCATGCGC | 0.418 |
| AGCATGCA | 0.389 |
| CGTTACCA | 0.253 |
| CACCCGTG | 0.253 |

Further values, each from its own experiment
| Substance | target | assay | system | conditions | how to read | endpoint | result |
| --- | --- | --- | --- | --- | --- | --- | --- |
| PhoQ, residues 284 288 289 292 302 303 ALAMYF | PhoP, residues 12 14 15 18 19 AQCLL (Escherichia coli, UniProt P23836) | Sort-seq, refers to: YFP reporter | E. coli | PhoQ-PhoP variant library, together with: 10 µM Mg2+ | baseline: high Mg2+ state, higher = stronger signaling | fold induction | 3.14 |
